Experimental data pooled from the literature.
Each line is one published result; not all experiments were run side by side.
Organism: Pseudomonas aeruginosa

SMILES	test	test system	setting	scale	MIC
CC[C@H](C)[C@H](NC(=O)[C@H](CCCCN)NC(=O)[C@@H]1CCCN1C(=O)[C@H](CCCNC(=N)N)NC(=O)[C@H](Cc1ccc(O)cc1)NC(=O)[C@H](CCCNC(=N)N)NC(=O)[C@H](CCCNC(=N)N)NC(=O)[C@@H](NC(=O)[C@H](CCCNC(=N)N)NC(=O)[C@H](CCCNC(=N)N)NC(=O)[C@H](CC(C)C)NC(=O)[C@H](Cc1ccccc1)NC(=O)[C@H](CCCNC(=N)N)NC(=O)[C@H](CO)NC(=O)[C@H](Cc1ccccc1)NC(=O)[C@@H](N)CCCNC(=N)N)C(C)C)C(=O)N[C@@H](CO)C(=O)N[C@@H](Cc1ccccc1)C(=O)N[C@@H](CC(N)=O)C(=O)N[C@@H](CC(C)C)C(=O)N[C@@H](CCC(=O)O)C(=O)N1CCC[C@H]1C(=O)N[C@@H](Cc1ccccc1)C(=O)N[C@@H](Cc1ccccc1)C(=O)N[C@@H](CCCCN)C(=O)N[C@@H](Cc1ccccc1)C(=O)O	broth microdilution	ATCC 27853, Mueller-Hinton broth	16 to 20 h, 37 °C	–	2.54 µM
CC1(C)S[C@@H]2[C@H](NC(=O)[C@H](N)c3ccccc3)C(=O)N2[C@H]1C(=O)O	–	fpvB mutant	–	–	> 200 µg/mL
CC[C@H](C)[C@H](NC(=O)CNC(=O)[C@H](CC(=O)O)NC(=O)[C@H](CCCNC(=N)N)NC(=O)[C@@H](NC(=O)[C@H](CC(N)=O)NC(=O)[C@H](CCCNC(=N)N)NC(=O)CNC(=O)[C@@H](NC(=O)[C@H](CCCCN)NC(=O)[C@H](CCC(=O)O)NC(=O)[C@@H](NC(=O)[C@H](CCCCN)NC(=O)[C@H](CCCCN)NC(=O)[C@H](C)NC(=O)[C@@H](NC(=O)[C@H](CCCCN)NC(=O)[C@H](C)NC(=O)[C@@H](N)CCCNC(=N)N)[C@@H](C)CC)[C@@H](C)CC)C(C)C)C(C)C)C(=O)N[C@H](C(=O)N[C@@H](CCCCN)C(=O)N[C@@H](C)C(=O)NCC(=O)N1CCC[C@H]1C(=O)N[C@@H](C)C(=O)N[C@H](C(=O)N[C@@H](C)C(=O)N[C@H](C(=O)N[C@H](C(=O)NCC(=O)N[C@@H](CCC(N)=O)C(=O)N[C@@H](C)C(=O)N[C@@H](C)C(=O)N[C@H](C(=O)N[C@H](C(=O)N[C@H](C(=O)N[C@@H](CCCCN)C(N)=O)C(C)C)C(C)C)[C@@H](C)O)C(C)C)C(C)C)C(C)C)[C@@H](C)CC	–	KCCM 11328, Mueller-Hinton broth	16 h, 37 °C	growth inhibition over 99%	16 µM
CC[C@H](C)[C@H](NC(=O)[C@H](CCCNC(=N)N)NC(=O)[C@H](CCCNC(=N)N)NC(=O)[C@@H](N)CCCNC(=N)N)C(=O)N[C@@H](CO)C(=O)N[C@@H](Cc1ccccc1)C(=O)N[C@@H](CC(C)C)C(=O)NCC(=O)N[C@@H](CO)C(=O)N[C@@H](CCCCN)C(=O)N[C@H](C(=O)N[C@H](C(=O)N[C@H](C(=O)N[C@@H](CC(C)C)C(=O)N[C@@H](CC(C)C)C(=O)N[C@@H](CCCCN)C(=O)N[C@@H](CCCNC(=N)N)C(=O)N[C@@H](CCCNC(=N)N)C(=O)N[C@@H](CCCNC(=N)N)C(=O)N[C@@H](CCCNC(=N)N)C(N)=O)C(C)C)C(C)C)C(C)C	broth microdilution	ATCC 27853	highest value reported	–	16 µM
N=C(N)NCCC[C@H](NC(=O)[C@H](Cc1c[nH]c2ccccc12)NC(=O)[C@H](CCCNC(=N)N)NC(=O)[C@@H](N)Cc1c[nH]c2ccccc12)C(=O)N[C@@H](Cc1ccccc1)C(=O)N[C@@H](CCC(N)=O)C(=O)N[C@@H](Cc1ccccc1)C(=O)N[C@@H](CCC(N)=O)C(=O)N[C@@H](Cc1ccccc1)C(=O)N[C@@H](CCCCN)C(N)=O	broth microdilution, optical density	–	–	–	280 µM
CC[C@H](C)CCCCC(=O)N[C@@H](CCN)C(=O)N[C@H](C(=O)N[C@@H](CCN)C(=O)N[C@H]1CCNC(=O)[C@H]([C@@H](C)O)NC(=O)[C@H](CCN)NC(=O)[C@H](CCN)NC(=O)[C@H](CC(C)C)NC(=O)[C@@H](Cc2ccccc2)NC(=O)[C@H](CCN)NC1=O)[C@@H](C)O	–	ATCC 27853	24 h	–	< 1 µM
CC[C@H](C)[C@H](NC(=O)CNC(=O)[C@H](CC(=O)O)NC(=O)[C@H](CCCNC(=N)N)NC(=O)[C@@H](NC(=O)[C@H](CC(N)=O)NC(=O)[C@H](CCCNC(=N)N)NC(=O)CNC(=O)[C@@H](NC(=O)[C@H](CCCCN)NC(=O)[C@H](CCC(=O)O)NC(=O)[C@@H](NC(=O)[C@H](CCCCN)NC(=O)[C@H](CCCCN)NC(=O)[C@H](Cc1ccccc1)NC(=O)[C@@H](NC(=O)[C@H](CCCCN)NC(=O)[C@H](Cc1c[nH]c2ccccc12)NC(=O)[C@@H](N)CCCNC(=N)N)[C@@H](C)CC)[C@@H](C)CC)C(C)C)C(C)C)C(=O)N[C@H](C(=O)N[C@@H](CCCCN)C(=O)N[C@@H](C)C(=O)NCC(=O)N1CCC[C@H]1C(=O)N[C@@H](C)C(=O)N[C@H](C(=O)N[C@@H](C)C(=O)N[C@H](C(=O)N[C@H](C(=O)NCC(=O)N[C@@H](CCC(N)=O)C(=O)N[C@@H](C)C(=O)N[C@@H](C)C(=O)N[C@H](C(=O)N[C@@H](C)C(=O)N[C@@H](C)C(=O)N[C@@H](CCCCN)C(N)=O)[C@@H](C)O)C(C)C)C(C)C)C(C)C)[C@@H](C)CC	–	KCCM 11328, Mueller-Hinton broth	16 h, 37 °C	growth inhibition over 99%	4 µM
CC(C)(C)Oc1ccc(CC2NC(=O)C(C(=O)NC(C(=O)NC3C(=O)N4C3SC(C)(C)C4C(=O)O)c3ccccc3)=C2O)cc1 (stereo not shown)	–	pvdA mutant	–	–	6.25 µg/mL
CC[C@H](C)[C@H](NC(=O)[C@H](Cc1ccc(O)cc1)NC(=O)[C@@H](NC(=O)[C@H](Cc1c[nH]c2ccccc12)NC(=O)[C@@H]1CCCN1C(=O)[C@@H](NC(=O)[C@H](C)N)[C@@H](C)CC)[C@@H](C)CC)C(=O)N[C@@H](Cc1ccc(O)cc1)C(=O)N[C@@H](CCCNC(=N)N)C(=O)N[C@@H](CC(C)C)C(=O)N[C@@H](CC(C)C)C(=O)N[C@@H](CCCNC(=N)N)C(=O)N[C@@H](CCCCN)C(=O)NCC(=O)O	broth microdilution	PAO1	18 h, 37 °C	–	15 µM
CC[C@H](C)[C@H](NC(=O)[C@H](CC(C)C)NC(=O)[C@H](CCCNC(=N)N)NC(=O)[C@@H](N)CCCNC(=N)N)C(=O)N[C@@H](CCCNC(=N)N)C(=O)N[C@@H](CCCCN)C(=O)N[C@@H](CC(C)C)C(=O)N[C@@H](CCCCN)C(=O)NCC(=O)N[C@@H](CC(C)C)C(=O)N[C@@H](CCCCN)C(=O)N[C@@H](CCCCN)C(=O)N[C@@H](Cc1ccc(O)cc1)C(=O)N[C@@H](CC(C)C)C(=O)N[C@@H](Cc1ccc(O)cc1)C(=O)N[C@@H](Cc1ccccc1)C(=O)N[C@@H](CCCCN)C(=O)N[C@@H](CC(C)C)C(=O)N[C@@H](CCC(N)=O)C(=O)N[C@@H](CC(C)C)C(=O)N[C@@H](CC(C)C)C(=O)N[C@@H](CCCCN)C(=O)N[C@@H](CCCCN)C(N)=O	–	KCTC 1637, Mueller-Hinton broth	24 h	–	4 µM
CC[C@H](C)[C@H](N)C(=O)N[C@@H](CO)C(=O)N[C@@H](Cc1ccccc1)C(=O)N[C@@H](CC(C)C)C(=O)NCC(=O)N[C@@H](CO)C(=O)N[C@@H](CCCCN)C(=O)N[C@H](C(=O)N[C@H](C(=O)N[C@H](C(=O)N[C@@H](CC(C)C)C(=O)N[C@@H](CC(C)C)C(=O)N[C@@H](CCCCN)C(=O)N[C@@H](CCCNC(=N)N)C(=O)N[C@@H](CCCNC(=N)N)C(=O)N[C@@H](CCCNC(=N)N)C(=O)N[C@@H](CCCNC(=N)N)C(=O)N[C@@H](CCCNC(=N)N)C(=O)N[C@@H](CCCNC(=N)N)C(=O)N[C@@H](CCCNC(=N)N)C(N)=O)C(C)C)C(C)C)C(C)C	broth microdilution	ATCC 27853	highest value reported	–	8 µM
CC1(C)SC2C(NC(=O)C(NC(=O)C3=C(O)C(Cc4ccsc4)NC3=O)c3ccccc3)C(=O)N2C1C(=O)O (stereo not shown)	–	fpvA mutant	–	–	50 µg/mL
CC[C@H](C)[C@H](NC(=O)CNC(=O)[C@H](CC(=O)O)NC(=O)[C@H](CCCNC(=N)N)NC(=O)[C@@H](NC(=O)[C@H](CC(N)=O)NC(=O)[C@H](CCCNC(=N)N)NC(=O)CNC(=O)[C@@H](NC(=O)[C@H](CCCCN)NC(=O)[C@H](CCC(=O)O)NC(=O)[C@@H](NC(=O)[C@H](CCCCN)NC(=O)[C@H](CCCCN)NC(=O)[C@H](Cc1ccccc1)NC(=O)[C@@H](NC(=O)[C@H](CCC(=O)O)NC(=O)[C@H](Cc1c[nH]c2ccccc12)NC(=O)[C@@H](N)CCCNC(=N)N)[C@@H](C)CC)[C@@H](C)CC)C(C)C)C(C)C)C(=O)N[C@H](C(=O)N[C@@H](CCCCN)C(=O)N[C@@H](C)C(=O)NCC(=O)N1CCC[C@H]1C(=O)N[C@@H](C)C(=O)N[C@H](C(=O)N[C@@H](C)C(=O)N[C@H](C(=O)N[C@H](C(=O)NCC(=O)N[C@@H](CCC(N)=O)C(=O)N[C@@H](C)C(=O)N[C@@H](C)C(=O)N[C@H](C(=O)N[C@H](C(=O)N[C@H](C(=O)N[C@@H](CCCCN)C(N)=O)C(C)C)C(C)C)[C@@H](C)O)C(C)C)C(C)C)C(C)C)[C@@H](C)CC	–	KCCM 11328, Mueller-Hinton broth	16 h, 37 °C	growth inhibition over 99%	> 64 µM
CC1(C)SC2C(NC(=O)C(NC(=O)C3=C(O)C(Cc4ccccc4)NC3=O)c3ccccc3)C(=O)N2C1C(=O)O (stereo not shown)	–	pvdS mutant	–	–	25 µg/mL
CC[C@H](C)[C@H](N)C(=O)N[C@@H](CC(C)C)C(=O)NCC(=O)N[C@@H](CCCNC(=N)N)C(=O)N[C@H](C(=O)N[C@@H](Cc1c[nH]c2ccccc12)C(=O)N[C@@H](CCCCN)C(=O)NCC(=O)N[C@H](C(=O)N[C@@H](CCCCN)C(=O)N[C@@H](CC(=O)O)C(=O)N[C@H](C(=O)N[C@@H](CC(C)C)C(N)=O)[C@@H](C)CC)[C@@H](C)CC)[C@@H](C)CC	broth microdilution	ATCC BAA-427, Mueller-Hinton broth	16 h, 37 °C	–	25 µM
CC[C@H](C)[C@H](NC(=O)CN)C(=O)NCC(=O)N[C@@H](C)C(=O)N[C@H](C(=O)N[C@@H](CC(C)C)C(=O)N[C@@H](CCCCN)C(=O)N[C@H](C(=O)N[C@@H](CC(C)C)C(=O)N[C@H](C(=O)N[C@H](C(=O)NCC(=O)N[C@@H](CC(C)C)C(=O)N1CCC[C@H]1C(=O)N[C@@H](C)C(=O)N[C@@H](CC(C)C)C(=O)N[C@H](C(=O)N[C@@H](CO)C(=O)N[C@@H](Cc1c[nH]c2ccccc12)C(=O)N[C@H](C(=O)N[C@@H](CCCCN)C(=O)N[C@@H](CCCNC(=N)N)C(=O)N[C@@H](CCCCN)C(=O)N[C@@H](CCCNC(=N)N)C(=O)N[C@@H](CCC(N)=O)C(=O)N[C@@H](CCC(N)=O)C(N)=O)[C@@H](C)CC)[C@@H](C)CC)[C@@H](C)O)[C@@H](C)O)C(C)C)C(C)C	broth microdilution	27853, Mueller-Hinton broth	24 h, 37 °C, lowest concentration, 95% inhibition, together with: BSA	–	4 µM

Repeated from above:
SMILES	test	test system	setting	scale	MIC
CC[C@H](C)[C@H](N)C(=O)N[C@@H](CO)C(=O)N[C@@H](Cc1ccccc1)C(=O)N[C@@H](CC(C)C)C(=O)NCC(=O)N[C@@H](CO)C(=O)N[C@@H](CCCCN)C(=O)N[C@H](C(=O)N[C@H](C(=O)N[C@H](C(=O)N[C@@H](CC(C)C)C(=O)N[C@@H](CC(C)C)C(=O)N[C@@H](CCCCN)C(=O)N[C@@H](CCCNC(=N)N)C(=O)N[C@@H](CCCNC(=N)N)C(=O)N[C@@H](CCCNC(=N)N)C(=O)N[C@@H](CCCNC(=N)N)C(=O)N[C@@H](CCCNC(=N)N)C(=O)N[C@@H](CCCNC(=N)N)C(=O)N[C@@H](CCCNC(=N)N)C(N)=O)C(C)C)C(C)C)C(C)C	broth microdilution	ATCC 27853	highest value reported	–	8 µM
